Published values from different studies.
Each line is one published result; not all experiments were run side by side. Numbers after ± are the reported error.
ABCB1: ATP-dependent translocase ABCB1 (ABCB1, Homo sapiens, UniProt P08183)
Sequence of UniProt P08183 (whole entry, looked up): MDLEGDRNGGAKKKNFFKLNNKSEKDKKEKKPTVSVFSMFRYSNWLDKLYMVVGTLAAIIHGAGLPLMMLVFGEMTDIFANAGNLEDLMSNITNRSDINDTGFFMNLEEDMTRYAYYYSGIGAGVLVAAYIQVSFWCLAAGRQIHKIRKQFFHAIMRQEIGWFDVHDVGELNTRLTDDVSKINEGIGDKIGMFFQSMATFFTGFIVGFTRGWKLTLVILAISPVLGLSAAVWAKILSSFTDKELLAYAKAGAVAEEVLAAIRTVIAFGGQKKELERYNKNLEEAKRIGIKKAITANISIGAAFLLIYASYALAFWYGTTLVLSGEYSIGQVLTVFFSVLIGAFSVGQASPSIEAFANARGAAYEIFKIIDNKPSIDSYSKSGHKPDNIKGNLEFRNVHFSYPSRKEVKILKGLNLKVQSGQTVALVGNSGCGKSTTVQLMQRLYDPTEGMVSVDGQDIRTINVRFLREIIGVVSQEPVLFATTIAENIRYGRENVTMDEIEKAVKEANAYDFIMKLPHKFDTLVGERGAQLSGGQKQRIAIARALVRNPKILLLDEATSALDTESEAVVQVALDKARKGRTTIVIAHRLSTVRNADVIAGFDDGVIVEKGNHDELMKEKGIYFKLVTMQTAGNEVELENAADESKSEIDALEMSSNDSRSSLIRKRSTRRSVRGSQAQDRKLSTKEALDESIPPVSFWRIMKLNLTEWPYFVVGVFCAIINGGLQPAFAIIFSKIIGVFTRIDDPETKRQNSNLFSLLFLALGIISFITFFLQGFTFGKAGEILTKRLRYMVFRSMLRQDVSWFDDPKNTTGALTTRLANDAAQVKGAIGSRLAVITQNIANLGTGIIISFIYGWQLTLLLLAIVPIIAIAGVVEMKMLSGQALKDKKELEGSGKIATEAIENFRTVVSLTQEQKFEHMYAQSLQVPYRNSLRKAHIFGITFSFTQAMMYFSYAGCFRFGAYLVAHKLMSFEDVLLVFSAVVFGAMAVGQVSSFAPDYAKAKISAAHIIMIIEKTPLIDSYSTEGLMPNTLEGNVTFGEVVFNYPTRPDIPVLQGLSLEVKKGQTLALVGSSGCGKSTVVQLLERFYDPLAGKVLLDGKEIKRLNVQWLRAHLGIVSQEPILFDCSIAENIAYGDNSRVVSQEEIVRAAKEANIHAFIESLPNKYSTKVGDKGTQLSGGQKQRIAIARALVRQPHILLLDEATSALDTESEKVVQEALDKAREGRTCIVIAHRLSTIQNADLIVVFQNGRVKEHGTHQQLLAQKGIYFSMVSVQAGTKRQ
CYP1A1: Cytochrome P450 1A1 (CYP1A1, Homo sapiens, UniProt P04798)
Sequence of UniProt P04798 (whole entry, looked up): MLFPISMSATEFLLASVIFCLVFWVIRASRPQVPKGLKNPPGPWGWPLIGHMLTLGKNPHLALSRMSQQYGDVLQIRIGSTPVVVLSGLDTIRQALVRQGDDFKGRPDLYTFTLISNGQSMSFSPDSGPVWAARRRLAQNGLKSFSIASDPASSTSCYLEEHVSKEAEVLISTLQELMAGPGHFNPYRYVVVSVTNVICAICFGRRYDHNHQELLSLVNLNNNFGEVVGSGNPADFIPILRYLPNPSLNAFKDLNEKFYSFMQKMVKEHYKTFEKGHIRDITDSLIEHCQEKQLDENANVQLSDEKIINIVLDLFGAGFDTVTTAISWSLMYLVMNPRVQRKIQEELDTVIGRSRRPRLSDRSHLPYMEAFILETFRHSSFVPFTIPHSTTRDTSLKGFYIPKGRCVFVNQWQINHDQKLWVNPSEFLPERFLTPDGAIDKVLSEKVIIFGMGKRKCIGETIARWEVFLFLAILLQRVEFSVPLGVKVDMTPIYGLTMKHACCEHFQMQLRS
CYP2C8: Cytochrome P450 2C8 (CYP2C8, Homo sapiens, UniProt P10632)
Sequence of UniProt P10632 (whole entry, looked up): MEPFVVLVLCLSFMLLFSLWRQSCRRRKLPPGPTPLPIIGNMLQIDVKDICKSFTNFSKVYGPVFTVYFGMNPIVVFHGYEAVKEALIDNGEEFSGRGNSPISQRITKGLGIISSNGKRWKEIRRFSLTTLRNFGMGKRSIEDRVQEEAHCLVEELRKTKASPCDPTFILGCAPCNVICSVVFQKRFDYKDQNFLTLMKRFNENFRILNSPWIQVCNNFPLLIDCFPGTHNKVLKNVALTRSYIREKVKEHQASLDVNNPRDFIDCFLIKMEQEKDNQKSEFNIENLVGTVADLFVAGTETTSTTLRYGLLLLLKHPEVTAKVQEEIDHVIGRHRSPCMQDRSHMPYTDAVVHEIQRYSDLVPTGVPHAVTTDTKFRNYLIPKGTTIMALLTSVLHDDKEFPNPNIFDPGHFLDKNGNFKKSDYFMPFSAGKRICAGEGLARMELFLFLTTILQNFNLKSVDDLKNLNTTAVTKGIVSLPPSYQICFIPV
UCHL1: Ubiquitin carboxyl-terminal hydrolase isozyme L1 (UCHL1, Homo sapiens, UniProt P09936)
Sequence of UniProt Q9UNU6 (whole entry, unmodified, looked up): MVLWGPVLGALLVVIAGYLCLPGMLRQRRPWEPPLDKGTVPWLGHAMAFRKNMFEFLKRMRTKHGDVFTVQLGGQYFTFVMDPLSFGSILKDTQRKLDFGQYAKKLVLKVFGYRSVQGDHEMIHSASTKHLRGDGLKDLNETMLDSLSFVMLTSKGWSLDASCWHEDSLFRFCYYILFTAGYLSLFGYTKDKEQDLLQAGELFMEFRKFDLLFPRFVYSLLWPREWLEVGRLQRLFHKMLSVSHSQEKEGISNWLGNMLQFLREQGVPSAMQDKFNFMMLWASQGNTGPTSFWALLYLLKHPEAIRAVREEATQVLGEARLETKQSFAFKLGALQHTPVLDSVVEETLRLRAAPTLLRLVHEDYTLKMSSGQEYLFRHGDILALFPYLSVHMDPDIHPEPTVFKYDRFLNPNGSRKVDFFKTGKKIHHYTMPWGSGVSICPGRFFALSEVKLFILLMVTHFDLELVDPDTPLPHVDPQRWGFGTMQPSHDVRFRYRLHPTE
Sequence of UniProt P09936 (whole entry, looked up): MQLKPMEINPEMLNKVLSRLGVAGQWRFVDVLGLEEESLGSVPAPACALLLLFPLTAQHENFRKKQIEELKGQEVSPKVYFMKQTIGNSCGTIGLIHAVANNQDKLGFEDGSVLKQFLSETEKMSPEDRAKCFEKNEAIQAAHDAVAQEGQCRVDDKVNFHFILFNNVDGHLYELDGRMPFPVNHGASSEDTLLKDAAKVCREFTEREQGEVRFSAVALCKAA
Sequence of UniProt P04233 (whole entry, unmodified, looked up): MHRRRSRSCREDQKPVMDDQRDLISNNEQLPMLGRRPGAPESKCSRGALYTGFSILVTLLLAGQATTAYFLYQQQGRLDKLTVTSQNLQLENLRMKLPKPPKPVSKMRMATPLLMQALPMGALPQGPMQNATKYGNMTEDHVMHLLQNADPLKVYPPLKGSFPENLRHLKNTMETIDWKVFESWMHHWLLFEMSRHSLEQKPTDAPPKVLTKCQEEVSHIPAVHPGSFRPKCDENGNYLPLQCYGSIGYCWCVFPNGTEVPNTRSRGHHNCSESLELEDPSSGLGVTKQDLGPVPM
Sequence of UniProt Q96JM7 (whole entry, looked up): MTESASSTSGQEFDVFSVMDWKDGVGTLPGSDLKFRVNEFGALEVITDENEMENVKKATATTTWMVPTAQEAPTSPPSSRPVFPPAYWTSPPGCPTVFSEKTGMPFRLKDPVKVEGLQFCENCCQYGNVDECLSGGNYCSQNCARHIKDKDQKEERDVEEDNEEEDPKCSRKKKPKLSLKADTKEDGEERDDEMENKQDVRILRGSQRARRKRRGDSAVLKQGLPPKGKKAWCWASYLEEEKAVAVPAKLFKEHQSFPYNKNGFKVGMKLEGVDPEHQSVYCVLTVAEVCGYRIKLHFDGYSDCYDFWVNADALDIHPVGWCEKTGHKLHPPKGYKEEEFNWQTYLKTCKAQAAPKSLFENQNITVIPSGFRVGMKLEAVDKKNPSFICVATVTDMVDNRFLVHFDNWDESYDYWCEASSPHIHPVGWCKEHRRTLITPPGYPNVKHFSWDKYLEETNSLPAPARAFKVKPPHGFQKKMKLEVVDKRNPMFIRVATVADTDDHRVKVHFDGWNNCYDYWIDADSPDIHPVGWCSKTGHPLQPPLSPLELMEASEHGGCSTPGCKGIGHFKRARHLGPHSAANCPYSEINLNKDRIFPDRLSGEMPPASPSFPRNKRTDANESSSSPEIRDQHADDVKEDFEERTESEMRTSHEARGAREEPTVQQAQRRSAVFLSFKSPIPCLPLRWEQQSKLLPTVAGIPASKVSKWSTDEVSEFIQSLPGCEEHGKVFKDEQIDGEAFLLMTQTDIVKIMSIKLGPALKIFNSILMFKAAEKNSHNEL
Sequence of UniProt P05177 (whole entry, looked up): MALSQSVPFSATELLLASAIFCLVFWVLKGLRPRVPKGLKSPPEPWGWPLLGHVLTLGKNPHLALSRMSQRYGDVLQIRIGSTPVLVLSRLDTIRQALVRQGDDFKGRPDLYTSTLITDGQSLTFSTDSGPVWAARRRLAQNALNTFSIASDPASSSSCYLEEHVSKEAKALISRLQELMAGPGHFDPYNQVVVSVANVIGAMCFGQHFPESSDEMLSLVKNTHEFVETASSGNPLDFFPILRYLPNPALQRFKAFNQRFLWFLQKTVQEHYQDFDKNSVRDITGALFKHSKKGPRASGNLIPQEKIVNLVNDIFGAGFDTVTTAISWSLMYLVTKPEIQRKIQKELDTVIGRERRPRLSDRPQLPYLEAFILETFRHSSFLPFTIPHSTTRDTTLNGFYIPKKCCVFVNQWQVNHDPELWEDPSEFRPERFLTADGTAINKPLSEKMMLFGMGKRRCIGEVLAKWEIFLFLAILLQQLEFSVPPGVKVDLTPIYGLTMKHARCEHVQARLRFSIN

`CC[C@H]1[C@@H](O)[C@@H]2[C@H](CC[C@]3(C)[C@@H]([C@H](C)CCNC(=O)NS(=O)(=O)c4ccc(C(C)(C)C)cc4)CC[C@@H]23)[C@@]2(C)CC[C@@H](O)C[C@@H]12` gave a Vd/F of 239 L (ABCB1; human, plasma; dose not given, mean, added: quinidine).
With `C[C@@H](c1ncncc1F)[C@](O)(Cn1cncn1)c1ccc(F)cc1F` the IC50 was 1.93 µM (lenvatinib metabolism; inhibitor; human liver microsomes; 30 min, pH 7.4, added: lenvatinib substrate).
For `CC(C)Cn1cnc2c(N)nc3ccccc3c21`, the remaining compound was about 17% (CYP1A1; substrate, LC-MS; recombinant microsomes; 0.5 µM, 15 min, pH 7.4, 37 °C; reference: control).
For `CC(C)=CCc1cc2c(cc1O)O[C@H](c1ccc(O)cc1)CC2=O`, the CLint was 209 µL/min/mg (CYP1A1; phase I metabolism, substrate; recombinant enzyme; pH 7.4).
For `O=S(=O)(NCC(c1cccnc1)N1CCN(c2ccc(F)cc2)CC1)c1ccccc1` (centres unmarked), the inhibition was -11.5% (Trypanosoma cruzi; reporter translation, Renilla luciferase mRNA translation; cell-free extract; 40 µM; reference: DMSO).
`C[C@H]1CNC(=O)c2cnn3ccc(nc23)N[C@H](C)c2cc(F)ccc2O1`: “body weight loss” 8% (CD74-ROS1 (CD74/ROS1, Homo sapiens, UniProt P04233+P08922, G2032R); Balb/c nude mice, intracranial CD74-ROS1 xenograft; oral, 15 mg/kg twice daily, mean).
`CC1(C)CCC2(CC1)N[C@@H](C(=O)N[C@@H]1CC[C@@H](C(N)=O)OC1)[C@H](c1ccnc(Cl)c1F)[C@]21C(=O)Nc2cc(Cl)ccc21` — result for “Papp A to B”: 1.24 ×10⁻⁶ cm/s (ABCB1; Caco-2 monolayers; 3 µM, 120 min, no inhibitor).
`CC(C)CCC[C@@H](C)[C@H]1CC[C@H]2[C@@H]3[C@H](O)CC4=CC(=O)CC[C@]4(C)[C@H]3CC[C@]12C` — result for “maximal absorbance change”: 0.00462 (7-alpha-hydroxycholest-4-en-3-one 12-alpha-hydroxylase (Homo sapiens, UniProt Q9UNU6, W281F); binding, Soret peak shift).
The Kd of `c1c[nH]cn1` is reported as 878 µM (7-alpha-hydroxycholest-4-en-3-one 12-alpha-hydroxylase (Homo sapiens, UniProt Q9UNU6); binding).
The half-life of `CC[C@H](C)[C@H](NC(=O)[C@@H]1CCC(=O)NCCCC[C@H](NC(=O)[C@@H](N)CC(=O)O)C(=O)N[C@@H](CCCNC(=N)N)C(=O)N[C@@H](CC(N)=O)C(=O)N[C@@H]([C@@H](C)CC)C(=O)N[C@@H](Cc2ccccc2)C(=O)N[C@@H](CC(C)C)C(=O)N1)C(=O)N[C@@H](CCCCN)C(=O)N[C@@H](Cc1ccccc1)C(=O)N[C@@H](CCCCN)C(=O)N[C@@H](CCCCN)C(=O)N[C@@H](CCCCN)C(=O)O` is reported as over 24 h (trypsin; stability; 0.33 mM, pH 7.4).
The Ki of `CCc1nc(N)nc(N)c1-c1ccc(Cl)cc1` is reported as 2.19 ± 1.17 µM (human MATE1/MATE2-K; inhibitor, item: N1-methylnicotinamide renal clearance; human, plasma; oral, from plasma Cmax).
`CC1CCc2c(sc(NC(=O)Cn3cnc([N+](=O)[O-])n3)c2C(N)=O)C1` (centres unmarked) has an inhibition of -22.9% (Trypanosoma cruzi; reporter translation, Renilla luciferase mRNA translation; cell-free extract; 40 µM; reference: DMSO).
`Cc1cc(Nc2ncnc3ccc(NC4=NC(C)(CO)CO4)cc23)ccc1Oc1ccn2ncnc2c1` (centres unmarked) gave a Tmax of 2 h (CYP2C8; human, plasma; oral, 300 mg tucatinib single dose, day 1, median).
The EC50 of `O=C(O[C@]12C[C@H]3C[C@H](C[C@H](C3)C1)C2)c1ccc(NCc2cc(O)ccc2O)cc1` is reported as 7.17 µM (Toxoplasma gondii; parasite growth; HFF, bradyzoite, alkaline-induced).
For `Cc1oc2ccccc2c1Cc1cc(I)c(OCC(=O)O)c(I)c1`, “deactivation time constant reduction” read under 3 fold (KCNH2 (Homo sapiens, UniProt Q12809); ion current, whole-cell patch clamp; HEK293 expressing hERG1; 10 µM, K+ 10 mM; reference: untreated).
`Cc1cc(Nc2ncnc3ccc(NC4=NC(C)(C)CO4)cc23)ccc1Oc1ccn2ncnc2c1`: “geometric mean AUC(0-inf)” 2480 ng·h/mL (CYP2C8; substrate; human, plasma; oral, 300 mg single dose, day 1).
`Cn1c(=O)c2c(ncn2C)n(C)c1=O` has a CL/F of 6.32 L/h (Cytochrome P450 1A2 (CYP1A2, Homo sapiens, UniProt P05177); human, plasma; oral, 200 mg, day 1, alone, geometric mean).
With `CCOc1cc(CC(=O)N[C@@H](CC(C)C)c2ccccc2N2CCCCC2)ccc1C(=O)O` the AUC(0-last) was 11.1 ng·h/mL (CYP2C8; human, plasma; 0.5 mg, day 1, arithmetic mean).
`CC[C@H](C)[C@H](NC(=O)[C@H](Cc1ccc(O)cc1)NC(=O)[C@@H](NC(=O)[C@@H](N)CCCN=C(N)N)C(C)C)C(=O)N[C@@H](Cc1c[nH]cn1)C(=O)N1CCC[C@H]1C(=O)N[C@@H](Cc1ccccc1)C(=O)O` has a proteolytic conversion of 78.2 ± 2.8% (trypsin; LC-MS; 20 µM, 60 min, pH 7.4, 25 °C).
`COc1cc(O)c(CC=C(C)C)c2c1C(=O)CC(c1ccc(O)cc1)O2` (centres unmarked) has an inhibition of 87.7 ± 1.1% (CYP2C8; enzyme activity, inhibitor; human liver microsomes; 1 µM, pH 7.4, added: amodiaquine).
For `O=C(CCl)c1c(-c2ccccc2)[nH]c2ccccc12`, the labelling was 57.6% (UCHL1; covalent, intact protein LC-MS; 12.5 µM).
`COc1cc(/C=C/C(=O)N2CCC=CC2=O)cc(OC)c1OC` has an EC90 of 15.5 µM (Toxoplasma gondii; parasite growth; HFF, bradyzoite, alkaline-induced).
`CC[C@@H]([C@H](C)O)n1ncn(-c2ccc(N3CCN(c4ccc(OC[C@@H]5CO[C@@](Cn6cncn6)(c6ccc(F)cc6F)C5)cc4)CC3)cc2)c1=O` has an IC50 of 1.83 µM (lenvatinib metabolism; inhibitor; human liver microsomes; 30 min, pH 7.4, added: lenvatinib substrate).
Under “FRAP recovery half-time”, `O=C(c1ccc(C(=O)N2CCC(N3CCCC3)CC2)c(Nc2ccccc2)c1)N1CCC(N2CCCC2)CC1` is recorded as 20.1 s (Lethal(3)malignant brain tumor-like protein 3 (Homo sapiens, UniProt Q96JM7); FRAP; human cells; 0.1 µM).
For `C[C@@H](c1nc(-c2ccc(C#N)cc2)cs1)[C@](O)(Cn1cncn1)c1cc(F)ccc1F`, the IC50 was 0.355 µM (lenvatinib metabolism; inhibitor; rat liver microsomes; 30 min, pH 7.4, added: lenvatinib substrate).
With `O=C1CCc2cc(C(=O)CCl)ccc2N1` the labelling was 31.5% (UCHL1; covalent, intact protein LC-MS; 12.5 µM).

Excerpt of the above:
The Kd of `c1c[nH]cn1` is reported as 878 µM (7-alpha-hydroxycholest-4-en-3-one 12-alpha-hydroxylase (Homo sapiens, UniProt Q9UNU6); binding).
The half-life of `CC[C@H](C)[C@H](NC(=O)[C@@H]1CCC(=O)NCCCC[C@H](NC(=O)[C@@H](N)CC(=O)O)C(=O)N[C@@H](CCCNC(=N)N)C(=O)N[C@@H](CC(N)=O)C(=O)N[C@@H]([C@@H](C)CC)C(=O)N[C@@H](Cc2ccccc2)C(=O)N[C@@H](CC(C)C)C(=O)N1)C(=O)N[C@@H](CCCCN)C(=O)N[C@@H](Cc1ccccc1)C(=O)N[C@@H](CCCCN)C(=O)N[C@@H](CCCCN)C(=O)N[C@@H](CCCCN)C(=O)O` is reported as over 24 h (trypsin; stability; 0.33 mM, pH 7.4).
The Ki of `CCc1nc(N)nc(N)c1-c1ccc(Cl)cc1` is reported as 2.19 ± 1.17 µM (human MATE1/MATE2-K; inhibitor, item: N1-methylnicotinamide renal clearance; human, plasma; oral, from plasma Cmax).
